Published values pooled from the literature.
Compare with care: the assays were run in different laboratories. Values joined by “and” are separate records of one study, mostly repeats; a detail may differ.
EPHB1: Ephrin type-B receptor 1 (EPHB1, Homo sapiens, UniProt P54762)
Chain of UniProt Q9UH17 (whole entry, looked up): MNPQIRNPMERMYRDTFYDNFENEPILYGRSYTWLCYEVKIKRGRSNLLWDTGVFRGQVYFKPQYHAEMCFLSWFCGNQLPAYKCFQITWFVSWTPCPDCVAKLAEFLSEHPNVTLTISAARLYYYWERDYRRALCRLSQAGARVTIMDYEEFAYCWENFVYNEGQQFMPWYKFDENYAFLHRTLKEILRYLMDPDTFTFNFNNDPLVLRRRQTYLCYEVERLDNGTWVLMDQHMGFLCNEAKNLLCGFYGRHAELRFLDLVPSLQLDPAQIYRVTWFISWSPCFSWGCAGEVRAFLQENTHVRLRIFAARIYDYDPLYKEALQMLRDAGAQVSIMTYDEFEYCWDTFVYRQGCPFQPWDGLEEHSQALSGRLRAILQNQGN
Chain of UniProt P54762 (whole entry, looked up): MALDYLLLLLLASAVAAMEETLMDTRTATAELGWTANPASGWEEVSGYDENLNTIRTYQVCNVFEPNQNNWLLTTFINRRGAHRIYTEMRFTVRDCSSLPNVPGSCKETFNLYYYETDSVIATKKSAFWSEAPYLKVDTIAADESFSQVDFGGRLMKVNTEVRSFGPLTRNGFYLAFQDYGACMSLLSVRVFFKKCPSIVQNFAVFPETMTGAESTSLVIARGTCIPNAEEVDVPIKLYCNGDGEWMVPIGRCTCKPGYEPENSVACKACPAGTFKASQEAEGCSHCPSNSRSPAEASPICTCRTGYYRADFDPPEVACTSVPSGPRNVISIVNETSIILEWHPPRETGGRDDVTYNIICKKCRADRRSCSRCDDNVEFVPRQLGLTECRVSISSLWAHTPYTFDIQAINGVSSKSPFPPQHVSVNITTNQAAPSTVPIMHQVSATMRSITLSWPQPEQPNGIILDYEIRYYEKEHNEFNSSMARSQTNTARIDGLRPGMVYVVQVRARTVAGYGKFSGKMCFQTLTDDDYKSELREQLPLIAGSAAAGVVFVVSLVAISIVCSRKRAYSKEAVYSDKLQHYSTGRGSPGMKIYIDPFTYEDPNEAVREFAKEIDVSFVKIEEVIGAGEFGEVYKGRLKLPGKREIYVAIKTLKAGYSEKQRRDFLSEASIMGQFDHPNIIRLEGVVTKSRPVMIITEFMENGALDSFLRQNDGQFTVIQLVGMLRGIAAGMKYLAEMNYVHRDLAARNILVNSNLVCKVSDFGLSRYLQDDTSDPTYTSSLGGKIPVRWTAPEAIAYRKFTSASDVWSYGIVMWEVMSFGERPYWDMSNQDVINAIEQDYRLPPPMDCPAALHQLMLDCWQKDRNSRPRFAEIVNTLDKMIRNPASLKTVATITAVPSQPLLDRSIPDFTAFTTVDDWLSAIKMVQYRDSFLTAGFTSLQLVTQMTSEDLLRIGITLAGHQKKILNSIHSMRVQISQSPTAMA
Chain of UniProt P23975 (whole entry, looked up): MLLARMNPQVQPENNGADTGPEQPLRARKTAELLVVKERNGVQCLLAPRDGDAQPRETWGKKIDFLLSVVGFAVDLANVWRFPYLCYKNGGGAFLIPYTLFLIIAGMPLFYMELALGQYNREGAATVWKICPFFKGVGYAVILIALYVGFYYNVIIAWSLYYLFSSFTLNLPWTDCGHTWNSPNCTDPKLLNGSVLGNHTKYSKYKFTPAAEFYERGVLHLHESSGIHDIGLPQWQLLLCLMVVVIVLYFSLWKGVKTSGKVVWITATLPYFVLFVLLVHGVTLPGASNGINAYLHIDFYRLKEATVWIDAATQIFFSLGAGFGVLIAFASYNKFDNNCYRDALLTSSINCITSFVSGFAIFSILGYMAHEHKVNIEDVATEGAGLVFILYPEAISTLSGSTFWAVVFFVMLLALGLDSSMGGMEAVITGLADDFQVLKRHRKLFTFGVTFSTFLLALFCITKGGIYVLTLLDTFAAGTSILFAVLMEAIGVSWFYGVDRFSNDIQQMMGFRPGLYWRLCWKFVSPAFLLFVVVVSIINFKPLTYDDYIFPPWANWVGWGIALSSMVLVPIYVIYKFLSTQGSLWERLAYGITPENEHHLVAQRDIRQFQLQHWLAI
Chain of UniProt P54753 (whole entry, looked up): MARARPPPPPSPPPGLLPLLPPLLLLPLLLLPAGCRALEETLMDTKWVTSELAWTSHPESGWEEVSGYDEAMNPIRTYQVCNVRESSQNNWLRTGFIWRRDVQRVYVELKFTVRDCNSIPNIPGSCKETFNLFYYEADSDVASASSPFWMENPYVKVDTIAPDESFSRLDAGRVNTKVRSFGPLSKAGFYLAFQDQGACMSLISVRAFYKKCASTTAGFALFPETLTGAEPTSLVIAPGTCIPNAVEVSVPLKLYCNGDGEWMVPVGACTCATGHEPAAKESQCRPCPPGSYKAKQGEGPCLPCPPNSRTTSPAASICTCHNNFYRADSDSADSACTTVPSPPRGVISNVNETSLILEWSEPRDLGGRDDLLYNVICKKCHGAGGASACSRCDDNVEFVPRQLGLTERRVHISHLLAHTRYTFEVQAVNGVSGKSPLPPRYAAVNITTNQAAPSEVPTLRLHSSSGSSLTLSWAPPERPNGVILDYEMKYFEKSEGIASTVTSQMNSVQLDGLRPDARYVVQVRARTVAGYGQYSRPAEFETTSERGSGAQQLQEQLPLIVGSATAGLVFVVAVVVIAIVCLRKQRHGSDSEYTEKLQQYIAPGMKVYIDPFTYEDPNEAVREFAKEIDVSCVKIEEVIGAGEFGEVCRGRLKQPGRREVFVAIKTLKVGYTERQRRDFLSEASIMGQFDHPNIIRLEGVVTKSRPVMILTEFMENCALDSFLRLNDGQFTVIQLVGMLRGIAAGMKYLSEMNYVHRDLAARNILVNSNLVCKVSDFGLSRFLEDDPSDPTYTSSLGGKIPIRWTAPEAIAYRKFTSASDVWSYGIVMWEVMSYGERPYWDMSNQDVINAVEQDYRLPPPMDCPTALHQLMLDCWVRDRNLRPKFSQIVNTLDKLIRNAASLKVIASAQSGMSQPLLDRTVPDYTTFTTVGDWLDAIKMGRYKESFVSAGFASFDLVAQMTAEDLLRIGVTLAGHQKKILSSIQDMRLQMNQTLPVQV
Chain of UniProt Q96GW9 (whole entry, looked up): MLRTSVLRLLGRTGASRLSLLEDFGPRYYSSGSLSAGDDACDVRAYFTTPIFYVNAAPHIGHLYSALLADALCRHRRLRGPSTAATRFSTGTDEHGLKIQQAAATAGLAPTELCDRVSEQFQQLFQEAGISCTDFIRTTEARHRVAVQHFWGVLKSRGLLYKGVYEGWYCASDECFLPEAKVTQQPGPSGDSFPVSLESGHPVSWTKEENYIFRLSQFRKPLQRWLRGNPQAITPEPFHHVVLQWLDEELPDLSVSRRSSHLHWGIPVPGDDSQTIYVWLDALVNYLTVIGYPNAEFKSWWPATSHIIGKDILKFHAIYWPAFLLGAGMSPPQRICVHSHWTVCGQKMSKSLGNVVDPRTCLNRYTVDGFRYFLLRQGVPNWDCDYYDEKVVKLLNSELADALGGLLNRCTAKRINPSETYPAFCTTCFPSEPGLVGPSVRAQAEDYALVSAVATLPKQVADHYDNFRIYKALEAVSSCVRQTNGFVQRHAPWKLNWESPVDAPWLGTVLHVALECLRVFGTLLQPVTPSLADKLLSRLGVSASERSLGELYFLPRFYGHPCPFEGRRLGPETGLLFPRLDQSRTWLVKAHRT
Chain of UniProt P49137 (whole entry, looked up): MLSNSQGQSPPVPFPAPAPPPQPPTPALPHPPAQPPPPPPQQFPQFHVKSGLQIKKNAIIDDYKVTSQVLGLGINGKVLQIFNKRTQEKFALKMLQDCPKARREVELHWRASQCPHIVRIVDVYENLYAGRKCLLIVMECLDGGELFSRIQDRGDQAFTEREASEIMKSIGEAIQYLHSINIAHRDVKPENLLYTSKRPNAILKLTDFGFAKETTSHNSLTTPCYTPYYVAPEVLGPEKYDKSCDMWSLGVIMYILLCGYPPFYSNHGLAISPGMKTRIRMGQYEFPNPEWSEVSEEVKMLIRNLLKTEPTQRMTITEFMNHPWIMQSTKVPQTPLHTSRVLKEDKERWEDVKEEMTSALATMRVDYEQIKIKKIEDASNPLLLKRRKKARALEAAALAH
Chain of UniProt Q99LR1 (whole entry, looked up): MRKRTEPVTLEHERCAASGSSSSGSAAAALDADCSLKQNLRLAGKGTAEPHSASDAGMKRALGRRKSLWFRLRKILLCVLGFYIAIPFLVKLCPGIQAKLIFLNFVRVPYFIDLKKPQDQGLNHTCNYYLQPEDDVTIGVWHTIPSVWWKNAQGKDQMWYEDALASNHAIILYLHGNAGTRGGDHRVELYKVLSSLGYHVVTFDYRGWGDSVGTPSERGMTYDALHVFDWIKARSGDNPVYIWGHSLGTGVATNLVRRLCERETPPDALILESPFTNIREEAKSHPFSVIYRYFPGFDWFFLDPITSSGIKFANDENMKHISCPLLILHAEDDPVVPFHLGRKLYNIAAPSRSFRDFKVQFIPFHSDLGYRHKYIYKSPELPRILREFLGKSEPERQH
Chain of UniProt P34972 (whole entry, looked up): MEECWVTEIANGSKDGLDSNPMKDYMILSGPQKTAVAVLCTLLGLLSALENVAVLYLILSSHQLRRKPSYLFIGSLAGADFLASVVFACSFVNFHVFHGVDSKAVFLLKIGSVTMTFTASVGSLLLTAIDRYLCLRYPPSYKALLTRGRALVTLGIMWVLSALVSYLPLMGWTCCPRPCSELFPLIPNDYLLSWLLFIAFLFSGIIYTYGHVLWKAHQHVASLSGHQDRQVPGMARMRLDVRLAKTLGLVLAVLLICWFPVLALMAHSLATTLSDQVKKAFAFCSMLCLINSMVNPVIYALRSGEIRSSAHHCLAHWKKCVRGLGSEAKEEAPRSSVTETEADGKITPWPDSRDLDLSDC

| Compound | target | test | system | setting | how to read | measurement | value |
| --- | --- | --- | --- | --- | --- | --- | --- |
| CN(C)[C@H]1C[C@@]23CC[C@@]4(O2)C(=CC[C@]2(C)[C@@H](c5ccc6ccncc6c5)CC[C@H]24)C=C3[C@@H](O)[C@@H]1O | EPHB3 (Homo sapiens, UniProt P54753) | ATP probe labelling, inhibitor, KiNativ profiling |  | 1 µM |  | inhibition | 9.8% |
| COc1ccccc1-c1n[nH]c2nc(N[C@H]3CC[C@H](NS(=O)(=O)CC(C)C)CC3)ncc12 | cdc2-related kinase 12 (Leishmania donovani, UniProt A0A3S7WQK2) | kinobead competition pull-down | Leishmania donovani, cell extract | 0.016 µM | baseline: vehicle | remaining binding | 8% |
| COCC1CCCCN1C(=O)n1cc(C(O)(c2ccccc2)c2ccccc2)nn1 (stereo not drawn) | Abhd12 (Mus musculus, UniProt Q99LR1) | probe labelling, inhibitor, competitive ABPP-SILAC | mouse T cells | concentration not given, 4 h, protein level | baseline: treated over DMSO cells, lower = stronger inhibition | SILAC activity ratio | 1.29 |
| O=C1NC(=O)c2c1c1cc(F)c[n+]3c1c1c2c2cc(O)ccc2[n]1[Ru-4]312([N]=C=S)[S+]3CC[S+]1CC[S+]2CC3 (stereo not drawn) | EPHB1 | enzyme activity |  | 100 nM, human enzyme, with: 10 µM ATP | baseline: untreated | remaining activity | 117% |
| CCOC(=O)[C@](CC)(CCCSCCOCCOCCNC(=O)c1ccc(C(=O)[O-])c(C2=C3C=CC(=[N+](C)C)C=C3[Si](C)(C)c3cc(N(C)C)ccc32)c1)NC(=O)c1ccc(C2CC2)c(Cc2ccc(F)cc2)n1 | CNR2 (Homo sapiens, UniProt P34972) | radioligand binding |  |  | baseline: CB1 over CB2 (human) | Ki ratio | 2 |
| CS(C)(=O)=Nc1ccc(-c2ccc(-c3nc4cc(O[C@@H]5CO[C@H]6[C@@H]5OC[C@H]6O)[nH]c4cc3F)cc2)cc1 | MAPKAPK2 (Homo sapiens, UniProt P49137) | enzyme activity, inhibitor |  | 10 µM |  | inhibition | -3% |
| CCc1nnc(-c2c(OC)cc(-c3cnc4cc(-c5cnn(C)c5)ccn34)cc2OC)o1 | SLC6A2 (Homo sapiens, UniProt P23975) | antagonist radioligand, radioligand binding |  | 10 µM, SafetyScreen44 norepinephrine transporter replicate 2 | lower = stronger displacement | remaining binding | 106% |
| C=CC(=O)Nc1cc(-c2ccc(C(=O)N3CCCC(O)(CC)C3)cc2)ccc1F (stereo not drawn) | DNA dC->dU-editing enzyme APOBEC-3B, C-terminal domain (Homo sapiens, UniProt Q9UH17) | covalent adduct, intact protein MS |  | 125 µM, 1 h, 5-fold molar excess |  | unmodified protein | 89% and 86% |
| CCn1nc(Cl)c2c1-c1cnc(N)c(c1)O[C@H](C)c1cc(F)ccc1-c1nn(C)cc1C2 | EPHB1 | kinase activity, inhibitor |  |  | baseline: IC50 EPHB1 over IC50 ALK | selectivity ratio | 171 fold |
| Fc1ccc2[nH]c(NCCCN[C@@H]3CCOc4c(Cl)cc(Cl)cc43)nc2n1 | MARS2 (Homo sapiens, UniProt Q96GW9) | enzyme activity |  |  | baseline: human IC50 over T. brucei IC50 | selectivity ratio | > 2 |
| COC(=O)[C@@H](NC(=O)c1nn(Cc2ccc(F)cc2)c2cc(OCCCCNC(=N)N)ccc12)C(C)(C)C | CNR1 (Homo sapiens, UniProt P21554) | GTPase |  |  | baseline: FUB | Gi GTP turnover maximum | 110% |
| CC(C)[C@H]1NC(=O)C[C@H]2/C=C/CCSSC[C@@H](NC1=O)C(=O)N[C@H](Cc1cccc3ccccc13)C(=O)NCC(=O)O2 | EPHA5 (Homo sapiens, UniProt P54756) | enzyme activity, inhibitor |  | 10 µM |  | inhibition | -9.3% |

Repeated from above:
| Compound | target | test | system | setting | how to read | measurement | value |
| --- | --- | --- | --- | --- | --- | --- | --- |
| CCOC(=O)[C@](CC)(CCCSCCOCCOCCNC(=O)c1ccc(C(=O)[O-])c(C2=C3C=CC(=[N+](C)C)C=C3[Si](C)(C)c3cc(N(C)C)ccc32)c1)NC(=O)c1ccc(C2CC2)c(Cc2ccc(F)cc2)n1 | CNR2 (Homo sapiens, UniProt P34972) | radioligand binding |  |  | baseline: CB1 over CB2 (human) | Ki ratio | 2 |
